Results collected from several papers.
Several values in a cell are separate wells, animals, samples, runs or records. ± gives the spread as reported. Values after ≈ are worked out from the molar mass of the structure shown.
Organism: Mycobacterium tuberculosis

Nc1c2c(nc3sc4c(c13)CCCCC4)CCCC2
MIC50 (microbial growth): 1700 µM (≈ 463 µg/mL)

c1cc2c(s1)CCOC21CCN(Cc2ccc3c(c2)OCCO3)CC1
IC50 (microbial growth): 590 nM

CCC(CO)NCCNC(CC)CO.COc1cc(C=NNC(=O)c2ccncc2)ccc1OC(=O)CN1C(=O)CSC1=O
MIC (growth in combination; H37Rv; together with: reference drug at 1/2 MIC): 0.5 µg/mL

NC(=O)c1cc(-c2cccnc2)ccc1OCCc1cccc(F)c1
selectivity index (H37Rv-LP; relative to: HepG2 CC50 over Mtb IC90): 5

CCc1nc2cc(OC(F)(F)F)ccn2c1C(=O)NCc1ccc2oc(-c3ccc(OC(F)(F)F)cc3)nc2c1
MIC90 (microbial growth; H37RV): > 25 µM

NNC(=O)c1ccncc1.O=C(CN1C(=O)CSC1=O)Oc1ccc(/C=N/NC(=O)c2ccccn2)cc1Br
MIC (growth in combination; H37Rv; together with: reference drug at 1/2 MIC): 0.0156 µg/mL

Cc1ccc(C2CC(C(F)(F)F)n3ncc(C(=O)NCc4ccc5c(c4)OCO5)c3N2)cc1 (stereo not drawn)
IC50 (microbial growth): 330 nM

C#CCN(Cc1ccc2nc(C)[nH]c(=O)c2c1)c1ccc(C(=O)N[C@H](CCC(=O)OC)C(=O)OC)cc1
MIC90 (bacterial growth, inhibitor; H37Rv wild type): > 100 µM

CCOc1cc(C=NNC(=O)c2ccncc2)ccc1OC(=O)CN1C(=O)CSC1=O.NNC(=O)c1ccncc1
FICI (two-drug checkerboard; H37Rv; concentration not given, unit not given; lower means more synergy): 0.724

Cc1ccccc1/C=C/C(=O)N[C@@H](CO)C(=O)N[C@H](C(=O)N[C@H](Cc1ccccc1)C(=O)O)[C@@H](C)O
MIC50 (mc2 6230; 5 days, 37 °C): inactive

CCc1nc2ccc(OC(F)(F)F)cn2c1C(=O)NCc1ccc2oc(-c3ccc(OC(F)(F)F)cc3)nc2c1
MIC90 (microbial growth; H37RV): > 25 µM

NC(=O)c1cc(-c2ccsc2)ccc1OCCc1cc(F)cc(F)c1
selectivity index (H37Rv-LP; relative to: HepG2 CC50 over Mtb IC90): 300

CCc1nc2ccc(Br)cn2c1C(=O)NCc1ccc2oc(-c3ccc(OC(F)(F)F)cc3)nc2c1
MIC90 (microbial growth; H37RV): 0.4 µM (≈ 0.224 µg/mL)

NC(=O)c1cc(C(F)F)ccc1OCCc1cccc(F)c1
selectivity index (H37Rv-LP; relative to: HepG2 CC50 over Mtb IC90): 4

CCc1nc2cc(Br)ccn2c1C(=O)NCc1ccc2oc(-c3ccc(Cl)cc3)nc2c1
MIC90 (microbial growth; H37RV): > 10 µM

NC(=S)N/N=C/c1ccc(OC(=O)/C=C2\SC(=O)NC2=O)cc1
MIC (microbial growth, resazurin; H37RV): 2.85 µM

COc1ccc2nccc(CC[C@H]3OC[C@H](NC(=O)c4ccc5c(c4)NC(=O)CO5)CO3)c2c1
FIC index (growth inhibition, checkerboard; H37Rv; together with: pretomanid): 1

CCC(CO)NCCNC(CC)CO.O=C(CN1C(=O)CSC1=O)Oc1ccc(C=NNC(=O)c2ccncc2)cc1Br
FICI (two-drug checkerboard; H37Rv; concentration not given, unit not given; lower means more synergy): 0.6

CCc1ccc(C2CC(C(F)(F)F)n3ncc(C(=O)NCc4cccs4)c3N2)cc1 (stereo not drawn)
IC50 (bacterial growth, inhibitor; mmpL3-TetON): 210 nM

NC(=O)c1cc(-c2ccco2)ccc1OCCc1cccc(F)c1
selectivity index (H37Rv-LP; relative to: HepG2 CC50 over Mtb IC90): 71

CC(C)[C@H]1NC(=O)[C@H](Cc2ccccc2)NC(=O)[C@@H](C(C)C)NC(=O)[C@@H](C)NC(=O)[C@H](C)NC(=O)[C@@H](Cc2c(-c3ccc(-c4ccc5ccccc5c4)cc3)[nH]c3ccccc23)NC(=O)[C@@H](CO)NC1=O
MIC90 (H37Ra): > 10 µM

Cc1occc1C(=O)Nc1nc(-c2ccccn2)nc2ccsc12
IC50 (microbial growth): 1390 nM

Cc1c(-c2ccc(Oc3ccc(OC(F)(F)F)cc3)nc2)[nH]c2ccccc2c1=O
IC90 (microbial growth; H37RV): 4.95 µM

CCOc1cc(/C=N/NC(=S)Nc2cccc(Cl)c2)ccc1OC(=O)CN1C(=O)CSC1=O
MIC (microbial growth, resazurin; H37RV): 31.6 µM

Cc1nc2cc(Br)ccn2c1C(=O)NCc1ccc2oc(-c3ccc(Cl)cc3)nc2c1
MIC90 (microbial growth; H37RV): 10 µM (≈ 4.96 µg/mL)

NNC(=O)c1ccncc1.O=C(CN1C(=O)CSC1=O)Oc1ccc(C=NNC(=O)c2ccncc2)cc1Cl
FICI (two-drug checkerboard; H37Rv; concentration not given, unit not given; lower means more synergy): 0.737

CCc1nc2ccc(Br)cn2c1C(=O)NCc1ccc2oc(-c3ccc(Cl)cc3)nc2c1
MIC90 (microbial growth; H37RV): 0.2 µM (≈ 0.102 µg/mL)

O=C(C=Cc1cccs1)N1CCN(Cc2ccc3c(c2)OCO3)CC1
IC50 (bacterial growth, inhibitor; mmpL3-TetON): 790 nM

Cc1nc(=O)c2cc(CN(C)c3ccc(C(=O)NCc4cccc(C(=O)O)c4)s3)ccc2[nH]1
MIC90 (bacterial growth, inhibitor; H37Rv wild type): > 100 µM

COc1ccc2ncc(F)c(C[C@H](O)[C@H]3OC[C@H](NCc4ccc5c(n4)NC(=O)CO5)CO3)c2c1
FIC index (growth inhibition, checkerboard; H37Rv; together with: bedaquiline): 1

Cc1cc(Oc2nc(N3CC[C@@H](c4ccncc4)C3)ncc2F)[nH]n1
normalised growth (OD; H37Rv PurF CRISPRi knockdown; 0.0625 µM, together with: anhydrotetracycline low): 4% and 5%

CCN(Cc1ccc2c(c1)OCO2)C(=O)CSc1nc(NC)c2ccccc2n1
IC50 (microbial growth): 17300 nM

NC(=O)c1cc(N2CCOCC2)ccc1OCCc1cccc(F)c1
IC90 (growth; H37Rv-LP; 120 h): 2.8 µM

CC(C)=CCC/C(C)=C/CNCCNC1C2CC3CC(C2)CC1C3 (stereo not drawn)
IC50 (microbial growth): 560 nM

COc1ccccc1-c1ccc(OCCc2cccc(F)c2)c(C(N)=O)c1
IC90 (growth; H37Rv-LP; 120 h): 49 ± 19 µM

CCc1nc2ccc(C(F)(F)F)cn2c1C(=O)NCc1ccc2oc(-c3ccc(OC(F)(F)F)cc3)nc2c1
MIC90 (microbial growth; H37RV): > 25 µM

COc1ccc2c(=O)c(C)c(-c3ccc(N4CCCCC4)cc3)[nH]c2c1
kill rate (time-kill; H37Rv; concentration not given, 7 days): 0.04 h⁻¹

COc1ccc(CCNC(=O)C2(n3cnnn3)CCCCC2)cc1
IC50 (microbial growth): 2120 nM

Cc1nc2ccc(C(F)(F)F)cn2c1C(=O)NCc1ccc2oc(-c3ccc(OC(F)(F)F)cc3)nc2c1
MIC90 (microbial growth; H37RV): > 25 µM

For quick reference, copied from above:
C#CCN(Cc1ccc2nc(C)[nH]c(=O)c2c1)c1ccc(C(=O)N[C@H](CCC(=O)OC)C(=O)OC)cc1
MIC90 (bacterial growth, inhibitor; H37Rv wild type): > 100 µM

NC(=O)c1cc(C(F)F)ccc1OCCc1cccc(F)c1
selectivity index (H37Rv-LP; relative to: HepG2 CC50 over Mtb IC90): 4

CCc1ccc(C2CC(C(F)(F)F)n3ncc(C(=O)NCc4cccs4)c3N2)cc1 (stereo not drawn)
IC50 (bacterial growth, inhibitor; mmpL3-TetON): 210 nM

Cc1occc1C(=O)Nc1nc(-c2ccccn2)nc2ccsc12
IC50 (microbial growth): 1390 nM

NC(=O)c1cc(-c2ccsc2)ccc1OCCc1cc(F)cc(F)c1
selectivity index (H37Rv-LP; relative to: HepG2 CC50 over Mtb IC90): 300

Cc1ccc(C2CC(C(F)(F)F)n3ncc(C(=O)NCc4ccc5c(c4)OCO5)c3N2)cc1 (stereo not drawn)
IC50 (microbial growth): 330 nM
